Assay results collected from several papers.
Each line is one published result; not all experiments were run side by side. ± gives the spread as reported.

CC(F)C(=O)NCCOCCOCCOCC(=O)N[C@@H](CCC(=O)NCCCC[C@@H]1NC(=O)[C@@H](Cc2ccc(O)cc2)NC(=O)[C@H](CC(=O)O)NC(=O)CNC(=O)[C@H](CCCNC(=N)N)NC1=O)C(=O)NCCCC[C@@H]1NC(=O)[C@@H](Cc2ccc(O)cc2)NC(=O)[C@H](CC(=O)O)NC(=O)CNC(=O)[C@H](CCCNC(=N)N)NC1=O (stereo partly shown) [fluorine-18 labelled] — tissue uptake (small-animal PET; female athymic nude mice, U-87 MG xenograft, liver; intravenous, 3.7 MBq, 120 min): 0.28 ± 0.08 %ID/g
CCCC[C@H](NC(=O)CNC(=O)CNC(=O)CN1CCN(CC(=O)O)CCN(CC(=O)O)CCN(CC(=O)O)CC1)C(=O)N[C@H]1CC(=O)NCCCC[C@@H](C(N)=O)NC(=O)[C@H](Cc2c[nH]c3ccccc23)NC(=O)[C@H](CCCNC(=N)N)NC(=O)[C@@H](Cc2ccccc2)NC(=O)[C@H](Cc2c[nH]cn2)NC1=O [lead-203 labelled] — tissue uptake (normal C57 mice, intestine; intravenous, 0.056 MBq, 24 h): 1.86 ± 1.02 %ID
O=C([O-])c1cccc(CN(CCN(Cc2cn(Cc3ccccc3)nn2)Cc2cccc(C(=O)[O-])n2)Cc2cn(Cc3ccccc3)nn2)n1.[64Cu+2] — tissue uptake (healthy athymic nude mice, skin; intravenous, 24 h): 1.04 %ID/g
CCCC[C@H](NC(=O)CN1CCC(NC(=O)CN2CCN(CC(=O)O)CCN(CC(=O)O)CCN(CC(=O)O)CC2)CC1)C(=O)N[C@H]1CC(=O)NCCCC[C@@H](C(N)=O)NC(=O)[C@H](Cc2c[nH]c3ccccc23)NC(=O)[C@H](CCCNC(=N)N)NC(=O)[C@@H](Cc2ccccc2)NC(=O)[C@H](Cc2c[nH]cn2)NC1=O [gallium-68 labelled] — tissue uptake (C57BL/6J mice male B16-F10 tumour, testes; 1 h post injection, unblocked): 0.3 ± 0.1 %ID/g
CN1C(=O)[C@@H](Cc2ccc(O)c(I)c2)NC(=O)CNC(=O)[C@H](Cc2ccc3ccccc3c2)NC(=O)[C@H](CCCNC(=N)N)NC(=O)[C@H]1CCCNC(=O)c1ccc(CNC(=O)CN2CCN(CC(=O)O)CCN(CC(=O)O)CC2)cc1 [fluorine-18 labelled] — tissue uptake (SCID mice, Daudi lymphoma xenograft, tumour; intravenous, 1 h): 13.9 ± 0.8 %ID/g
CC(F)C(=O)NC[C@@H]1O[C@H](C(=O)N[C@@H](CCC(=O)NCCCC[C@@H]2NC(=O)[C@@H](Cc3ccc(O)cc3)NC(=O)[C@H](CC(=O)O)NC(=O)CNC(=O)[C@H](CCCNC(=N)N)NC2=O)C(=O)NCCCC[C@@H]2NC(=O)[C@@H](Cc3ccc(O)cc3)NC(=O)[C@H](CC(=O)O)NC(=O)CNC(=O)[C@H](CCCNC(=N)N)NC2=O)[C@H](O)[C@H](O)[C@H]1O (stereo partly shown) [fluorine-18 labelled] — tissue uptake (small-animal PET; female athymic nude mice, U-87 MG xenograft, muscle; intravenous, 3.7 MBq, 60 min): 0.27 ± 0.07 %ID/g
CCCC[C@@H]1NC(=O)[C@@H](NC(=O)[C@H](CCC(=O)O)NC(=O)CNC(=O)CN2CCN(CC(=O)O)CCN(CC(=O)O)CCN(CC(=O)O)CC2)CCCCNC(=O)C[C@@H](C(N)=O)NC(=O)[C@H](C(C)C)NC(=O)[C@@H]2CCCN2C(=O)[C@H](CCCNC(=N)N)NC(=O)CNC(=O)[C@H](Cc2c[nH]c3ccccc23)NC(=O)[C@H](CCCNC(=N)N)NC(=O)[C@@H](Cc2ccccc2)NC(=O)[C@H](Cc2c[nH]cn2)NC(=O)[C@H](CCC(=O)O)NC1=O [gallium-67 labelled] — tissue uptake (C57 mice, B16/F10 lung metastases, brain; intravenous, 0.037 MBq/mouse, 4 h): 0.01 ± 0.01 %ID/g
Cc1ccc2c(=O)n(-c3ccc([18F])cc3)c(CCN3C(=O)c4cccc(OC(C)C)c4C3=O)nc2c1 — tissue uptake (ICR mice, male, kidney, liver, small intestine; intravenous, 50 µCi): > 10 %ID/g
CCCC[C@H](NC(=O)CNC(=O)CNC(=O)CN1CCN(CC(=O)O)CCN(CC(=O)O)CCN(CC(=O)O)CC1)C(=O)N[C@H]1CC(=O)NCCCC[C@@H](C(N)=O)NC(=O)[C@H](Cc2c[nH]c3ccccc23)NC(=O)[C@H](CCCNC(=N)N)NC(=O)[C@@H](Cc2ccccc2)NC(=O)[C@H](Cc2c[nH]cn2)NC1=O [gallium-67 labelled] — tissue uptake (female C57 mice, B16/F1 melanoma, skin; intravenous, 0.037 MBq, 4 h): 0.81 ± 0.22 %ID/g
N=C(N)NCCC[C@H](NC(=O)[C@@H]1CSSC[C@H](NC(=O)[C@H](Cc2ccc3ccccc3c2)NC(=O)[C@H](CCCNC(=N)N)NC(=O)[C@H](CCCNC(=N)N)NC(=O)CN2CCN(CC(=O)O)CCN(CC(=O)O)CCN(CC(=O)O)CC2)C(=O)N[C@@H](Cc2ccc(O)cc2)C(=O)N[C@@H](CCCNC(N)=O)C(=O)N[C@@H](CCCCN)C(=O)N[C@H](CCCCN)C(=O)N2CCC[C@H]2C(=O)N[C@@H](Cc2ccc(O)cc2)C(=O)N[C@@H](CCCNC(=N)N)C(=O)N[C@@H](CCCNC(N)=O)C(=O)N1)C(N)=O [copper-64 labelled] — tissue uptake (female athymic nude mice, blood; intravenous, 50 µCi, 4 h): 0.34 ± 0.02 %ID/g

Repeated from above:
N=C(N)NCCC[C@H](NC(=O)[C@@H]1CSSC[C@H](NC(=O)[C@H](Cc2ccc3ccccc3c2)NC(=O)[C@H](CCCNC(=N)N)NC(=O)[C@H](CCCNC(=N)N)NC(=O)CN2CCN(CC(=O)O)CCN(CC(=O)O)CCN(CC(=O)O)CC2)C(=O)N[C@@H](Cc2ccc(O)cc2)C(=O)N[C@@H](CCCNC(N)=O)C(=O)N[C@@H](CCCCN)C(=O)N[C@H](CCCCN)C(=O)N2CCC[C@H]2C(=O)N[C@@H](Cc2ccc(O)cc2)C(=O)N[C@@H](CCCNC(=N)N)C(=O)N[C@@H](CCCNC(N)=O)C(=O)N1)C(N)=O [copper-64 labelled] — tissue uptake (female athymic nude mice, blood; intravenous, 50 µCi, 4 h): 0.34 ± 0.02 %ID/g
CN1C(=O)[C@@H](Cc2ccc(O)c(I)c2)NC(=O)CNC(=O)[C@H](Cc2ccc3ccccc3c2)NC(=O)[C@H](CCCNC(=N)N)NC(=O)[C@H]1CCCNC(=O)c1ccc(CNC(=O)CN2CCN(CC(=O)O)CCN(CC(=O)O)CC2)cc1 [fluorine-18 labelled] — tissue uptake (SCID mice, Daudi lymphoma xenograft, tumour; intravenous, 1 h): 13.9 ± 0.8 %ID/g
